Results pooled from the literature.
Read-out: metabolic stability

For CN(C)C(=O)c1ccnc(N2Cc3cn(Cc4ccc(F)cc4)nc3C2)n1, the half-life was 158 min (rat, liver microsomes).
The half-life of COc1ccc(S(=O)(=O)N(C)/N=C/c2ccc(C#N)cc2)cc1OC is reported as 126 min (male Wistar rat, liver microsomes; 10 µM, pH 7.4).
CC1(CCCCCCCCCCCCCCOCCCOP(=O)(O)CO[C@H](CO)Cn2ccc(N)nc2=O)COC1 has a half-life of 9.01 min (rat, hepatocytes; 1 µM).
For CCOC(=O)N1CCC(Oc2nc3c(c(=O)n(C)c(=O)n3C)n2CCC(C)C)CC1, the half-life was 11 min (rat, liver microsomes).
For CN(C)C(=O)c1cncc(N2Cc3cnn(Cc4ccc(F)cc4)c3C2)n1, the half-life was 37 min (rat, liver microsomes).
The half-life of COC[C@H](NC(=O)[C@H](CCc1ccccc1)NC(=O)CN1CCOCC1)C(=O)N[C@H](/C=C/S(C)(=O)=O)CC(C)C is reported as 75 min (rat, hepatocytes).
Nc1nc(Cl)nc2c1ncn2Cc1cc(OCC(F)F)cc(-c2cccnc2F)c1 gave a half-life of 27 min (rat, liver microsomes).
The half-life of Cn1c(=O)c2c(nc(OC3CCN(C(=O)C4CC4)CC3)n2Cc2ccccc2F)n(C)c1=O is reported as 24 min (rat, liver microsomes).
The half-life of Cc1cc2c(cc1O)C=C1C=CC(=O)C(C)(C)[C@H]1CC2 is reported as 2.38 min (rat, liver microsomes; 1 mM, pH 7.4).
CN1C(=O)C2(Nc3ccccc3C(=O)N2Cc2ccccc2)c2cc(Br)ccc21 (centres unmarked) has a half-life of under 2.3 min (rat, hepatocytes).
With CCOC(=O)N1CCN(Cc2nc3c(c(=O)n(C)c(=O)n3C)n2CCC(C)C)CC1 the half-life was 23 min (rat, liver microsomes).
The half-life of Nc1ccn(C[C@@H](CO)OCP(=O)(O)OCCCS(=O)(=O)CCCCCCCCCCCCC2CCC2)c(=O)n1 is reported as 94.3 min (rat, hepatocytes; 1 µM).
The half-life of CC(C)CCCn1c(OC2CCN(C(=O)C3CC3)CC2)nc2c1c(=O)n(C)c(=O)n2C is reported as 3 min (rat, liver microsomes).
For O=c1c(-c2cnn(-c3ccc(Cl)cc3)c2)c(C(F)(F)F)oc2c(O)c(O)ccc12, the half-life was over 300 min (rat, liver microsomes).
With CC(C)CCn1c(OC2CCN(C(=O)C3CC3)CC2)nc2c1c(=O)n(C)c(=O)n2C the half-life was 17 min (rat, liver microsomes).
The half-life of CSCC[C@H](NC(=O)[C@H](CC(C)C)NC(=O)[C@H](Cc1c[nH]cn1)NC(=O)CNC(=O)[C@@H](NC(=O)[C@H](C)NC(=O)[C@H](Cc1c[nH]c2ccccc12)NC(=O)[C@H](CCC(N)=O)NC(=O)CCCCCN)C(C)C)C(N)=O is reported as 4 min (male Sprague-Dawley rat, hepatocytes; 10 µg/mL).
Nc1ccn(C[C@@H](CO)OCP(=O)(O)OCCCS(=O)(=O)CCCCCCCCCCC2CCC2)c(=O)n1 has a half-life of 62.4 min (rat, hepatocytes; 1 µM).
With COc1cc(-c2cnc3nc2NCCCNS(=O)(=O)c2cccc(c2)N3)ccc1F the half-life was 396 min (Sprague-Dawley rat, liver microsomes; 10 µM, pH 7.4).
With Cc1cccc(Cn2c(CN3CCN(C(=O)C4CC4)CC3)nc3c2c(=O)n(C)c(=O)n3C)c1 the half-life was 6 min (rat, liver microsomes).
Nc1ccn(C[C@@H](CO)OCP(=O)(O)OCCCS(=O)(=O)CCCCCCCCCCCCCC2CCC2)c(=O)n1 gave a half-life of 202 min (rat, hepatocytes; 1 µM).

Excerpt of the above:
CC1(CCCCCCCCCCCCCCOCCCOP(=O)(O)CO[C@H](CO)Cn2ccc(N)nc2=O)COC1 has a half-life of 9.01 min (rat, hepatocytes; 1 µM).
